Experimental data pooled from the literature.
Every numbered part comes from another study and shows a few of its results, in no order. Positions count from the first letter of the parent shown.

Series 1
Target: CREBL2, bZIP domain (human)
Technique: DHFR protein complementation
Matrix: yeast
Notes: single substitutions, most at no-binding floor
Relative to: wild-type JUN-FOS pair
Direction: higher = stronger binding
Measurement: binding fitness
Starting sequence: JUN, bZIP domain (human); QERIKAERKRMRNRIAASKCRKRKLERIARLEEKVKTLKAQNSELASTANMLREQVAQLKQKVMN; partner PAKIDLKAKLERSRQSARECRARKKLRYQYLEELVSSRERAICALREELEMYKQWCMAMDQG
V35K: -1.39 natural log
L52V: -1.57 natural log
A49Y: -1.4 natural log
L38D: -1.5 natural log
R30A: -1.46 natural log
R53N: -1.25 natural log
L31T: -1.54 natural log
A29S: -1.48 natural log
R30F: -1.51 natural log
E32R: -1.48 natural log
N42S: -1.5 natural log
E44F: -1.52 natural log
R30C: -1.42 natural log
K39Q: -1.15 natural log
N42R: -1.48 natural log
A46Q: -1.54 natural log

Series 2
Target: Histone acetyltransferase KAT6A, winged helix 1, GST fusion (KAT6A, Homo sapiens, UniProt Q92794, residues 1-85)
Technique: protein binding microarray
Form: double-stranded DNA, one strand shown
Matrix: in vitro
Tested at: not given
Notes: 8-mer, flanks averaged, mean of 2 arrays, mostly near background
Relative to: not given
Direction: higher = stronger binding
Measurement: E-score
Construct (chain): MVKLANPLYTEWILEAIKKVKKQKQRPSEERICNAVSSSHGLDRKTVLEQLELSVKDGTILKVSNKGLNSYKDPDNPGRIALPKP
TAGAGCCA: -0.192
GTTTTATA: -0.114
ACCGACCC: 0.32
ACTGGAAG: -0.259
ATTCTGTA: -0.0694
CCTGAACC: -0.14
ATGGAGTG: -0.116
ACCTCTCC: 0.109
CTGTAAAC: -0.0657
AGCAAGTC: -0.0712
ACACATAG: -0.22
CTATACAC: 0.00865
CCCTTTGA: -0.133
GCTATGGA: -0.0177
ATGACCTG: -0.0398
CCGATTCC: 0.222

Series 3
Target: PABPC1L2, full length, GST fusion (mouse, UniProt A0ABA7IW68)
Technique: RNAcompete
Form: RNA
Matrix: in vitro
Tested at: 20 nM
Notes: 7-mer, probes averaged, single round
Relative to: mean of 7-mers
Direction: higher = stronger binding
Measurement: 7-mer Z-score
Construct (chain): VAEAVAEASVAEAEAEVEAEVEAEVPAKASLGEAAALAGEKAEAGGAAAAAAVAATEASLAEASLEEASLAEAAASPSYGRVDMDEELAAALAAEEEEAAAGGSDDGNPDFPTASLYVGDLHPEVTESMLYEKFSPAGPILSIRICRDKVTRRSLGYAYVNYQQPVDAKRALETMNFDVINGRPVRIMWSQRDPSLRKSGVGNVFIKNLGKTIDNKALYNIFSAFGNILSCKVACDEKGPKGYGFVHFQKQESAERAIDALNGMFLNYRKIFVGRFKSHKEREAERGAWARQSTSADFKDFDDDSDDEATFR
GUCUCCG: -0.418
UUCGUAU: -0.374
AAUUCGG: 0.218
GCCUUAC: -0.34
ACGCAUG: -0.182
AACCCGG: -0.0228
UUCCAUG: -0.275
UCAUUAA: 0.066
AAACGAC: 0.871
GCACUCA: 0.0261
CGAAGGU: -0.19
GCAGAUU: 0.0533
GAGCCAC: -0.0899
GUGACGA: 0.211
GGUCGAG: 0.0515
UCUGAGU: -0.28
GUUGUCG: -0.434
CAGUUCA: -0.238
CCCUGCA: -0.318
UCACGGC: -0.162
AGUCGGG: -0.0591
ACAAAUG: 0.715
CCACCUG: -0.356
AUUGAGG: 0.202
GUAUUAU: -0.195

Series 4
Target: CCNE1, cyclin fold, Cln2 fusion (human)
Technique: yeast growth competition, sequencing
Matrix: yeast
Notes: strong parent motif
Relative to: not given
Direction: higher = stronger binding
Measurement: normalised enrichment score
Starting sequence: PKMYT1 docking peptide (human); SFEPRNLLSLFED; partner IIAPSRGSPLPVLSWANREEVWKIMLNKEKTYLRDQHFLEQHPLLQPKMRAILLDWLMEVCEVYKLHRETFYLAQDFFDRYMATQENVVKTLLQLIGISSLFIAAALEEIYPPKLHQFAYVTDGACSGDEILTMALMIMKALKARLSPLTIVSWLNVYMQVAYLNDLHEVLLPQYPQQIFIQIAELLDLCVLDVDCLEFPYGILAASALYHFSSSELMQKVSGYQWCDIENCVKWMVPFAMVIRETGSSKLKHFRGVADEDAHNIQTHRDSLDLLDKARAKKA
E12Q: 1.86
E12P: 0.575
L8V: 0.307
P4M: 1.86
P4W: 1.16
S1Q: 1.65
L8W: 0.889
D13L: 2.58
S9R: 2.07
R5S: 1.06
L8S: 0.524
L8R: 0.951
S1C: 2.04
F11P: 0.237
L8I: 1.57
L7T: 0.477
S9V: 1.83
L8K: 0.618

Series 5
Target: RNA binding protein fox-1 homolog 2, RRM domain, GST-SBP tag (RBFOX2, Homo sapiens, UniProt O43251-10, residues 100-194)
Technique: RNA Bind-n-Seq
Form: RNA
Matrix: in vitro
Tested at: 365 nM
Notes: natural RNA segment, single round, ends assumed
Relative to: no-protein control
Direction: higher = stronger binding
Measurement: RBNS enrichment (R)
Target sequence (chain): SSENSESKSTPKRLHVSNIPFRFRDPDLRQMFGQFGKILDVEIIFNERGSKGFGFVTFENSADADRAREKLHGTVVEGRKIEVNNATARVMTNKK
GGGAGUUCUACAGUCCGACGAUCAUUACAAAAUUAAAUUCUACAUUGUUACCAAGAAAUUUGUGGUGAUAAAAAUGGAAAAAUAAAAAUUGGGGAGUUAGUGAGGUUCUGUGCUUAUGUCUAUUUGUUCUGGAUGGAAUUCUCGGGUGCCAA: 0.974
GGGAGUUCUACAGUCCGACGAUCCUGUGGAACUUAAAGAAUGUGAAAGCUGUCAAAGGGUAUUUUACGAAUCACUUUUGUGUUUGAUAUAGUAAAACAAUGUGAUUCAUUCCAAAGUAACAGAAGGUUAUUUGUGGAAUUCUCGGGUGCCAA: 1.88
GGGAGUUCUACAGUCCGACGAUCCCUCCCUCUGCCCAGCAGCCCCAUCUCUCCAUCACCCUGAGCCCCUCAGGUCCCAACUGAAUGUCUGCCAACCCCUGCUCAGGACACUCUUCUUUCCUGGGGCAAGCCAGUGGAAUUCUCGGGUGCCAA: 0.705
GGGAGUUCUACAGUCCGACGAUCGAGUGGGAAGGAAGGGGUUGAGACGCGUGCUUUGAGAGCCUGUGAGGCUGCUCCGUCCUUGCCAGCUGCUCCCUAGUCCUGAGUGGUCCUUGGUGAGGAGCAGCAAGAUGUGGAAUUCUCGGGUGCCAA: 0.411
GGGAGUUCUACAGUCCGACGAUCUUAAACAAGAGAGAUAAGAGGAAAAUGCAACCACCACAUCUGACUUGCCCAAUGUAGACUUUCCUUUAUUAGAUUGAAGUACACAACCUAAUAUGAUAUAUUAUUUUGUAUGGAAUUCUCGGGUGCCAA: 0.604
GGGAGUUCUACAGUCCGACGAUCCUUAUCUGUUCCCUUCCUGGUUUCCAAAGAAGCCCUCUGUGAACAUCAUCAAAGCAUGGGUACCCCCAUCUGCAAGGGAUGGGCUUCAUCCUCCGCUAGUCCCUGUGUCCUGGAAUUCUCGGGUGCCAA: 0.339
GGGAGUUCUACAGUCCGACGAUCAUUAAUAGUUACACAAGAUGUUUUCAUUACAAAAUAUGUACCUAUCUAUUGAUGGACUCUACAUCCUAUAUUGUGACAUGUAAGUCCUUUAAAAGGUGAAAAGUAUGAUUUGGAAUUCUCGGGUGCCAA: 0.306
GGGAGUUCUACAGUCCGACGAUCCCUGGCCAUGCAUUGCCCAAGCGUGAACGUAGUGGCACCCACGUCUACCGCAGGCGUCCAGCCAGGAAAGAGCGACCCCCCUCUUGGACUGUCUUCUGGGCCCUUCCAAGUGGAAUUCUCGGGUGCCAA: 0.519
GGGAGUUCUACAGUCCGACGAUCUGAUGUGUCUGUAUAUCAAUCUGUAUCUACAUUUGAUGGACUGAGUAAGAAUGUUGCAUGUGAGAGAAGGGAUGUGACUGUGGACUCAGAUUGACACACACAGAUUGGUGUGGAAUUCUCGGGUGCCAA: 6.13
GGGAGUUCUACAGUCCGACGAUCGCAUAGUUUGGAGCUAGGGAGGGACUGUCAGCCUGGAGGUUUGGAGACUCAUUCUGGAAUCUAGUGUGGGUCAAGCCAACUUCAGGGAGAGGCUGAGCCAGGGUAGGAGUUGGAAUUCUCGGGUGCCAA: 1.22
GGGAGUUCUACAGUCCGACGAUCGGUUAGCAAAUGAUGUAAAAGAAGCUUUAUUGUCUAGUUGUUUUUUUUCCCCCAAGACAAAGGCAAGUUUCCCUAAGUUUGAGUUGAUAGUUAUUAAAAAGAAAACAAAAUGGAAUUCUCGGGUGCCAA: 0.966
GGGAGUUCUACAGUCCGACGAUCAAUAAAUUUCUUUGAUGUCUUCCCUACUUUCUCCACAUCAAUCAGAUUAAAGUGUGUAACCCCAUCUAUACAGUUAGUCUUUAUUUAUUUUUUACCUUCUUAUUGCCUUUUGGAAUUCUCGGGUGCCAA: 1.53

Series 6
Target: ABI1, truncated, D143A, DHFR fusion (Arabidopsis thaliana)
Technique: DHFR PCA, deep sequencing
Matrix: yeast
Notes: methotrexate growth selection, single substitutions
Together with: (+)-ABA 2500 µM
Relative to: wild-type fitted maximum
Direction: higher = stronger binding
Measurement: relative binding score
Starting sequence: PYL1, truncated, DHFR fusion (Arabidopsis thaliana); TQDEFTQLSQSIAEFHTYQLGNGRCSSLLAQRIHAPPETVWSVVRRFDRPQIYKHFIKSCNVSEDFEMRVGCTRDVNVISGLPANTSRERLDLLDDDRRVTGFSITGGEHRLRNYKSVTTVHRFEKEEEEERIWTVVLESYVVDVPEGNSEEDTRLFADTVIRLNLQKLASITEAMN
Y141W: 80.6%
T106L: 106%
S171Q: 93%
T120P: -7.73%
E128K: 98.6%
V76R: 36.5%
T1G: 94.5%
E139G: 62.7%
E125G: 99.9%
G21K: 102%
N114G: 104%
Q51Y: 98%
R32V: 91.1%
V118F: 90.1%

Series 7
Target: Interferon regulatory factor 3, full length, phosphomimetic (IRF3, Homo sapiens, UniProt Q14653, residues 1-427, S386D/S396D/S398D/S402D/T404D/S405D)
Chain of UniProt Q14653 (whole entry, unmodified, looked up): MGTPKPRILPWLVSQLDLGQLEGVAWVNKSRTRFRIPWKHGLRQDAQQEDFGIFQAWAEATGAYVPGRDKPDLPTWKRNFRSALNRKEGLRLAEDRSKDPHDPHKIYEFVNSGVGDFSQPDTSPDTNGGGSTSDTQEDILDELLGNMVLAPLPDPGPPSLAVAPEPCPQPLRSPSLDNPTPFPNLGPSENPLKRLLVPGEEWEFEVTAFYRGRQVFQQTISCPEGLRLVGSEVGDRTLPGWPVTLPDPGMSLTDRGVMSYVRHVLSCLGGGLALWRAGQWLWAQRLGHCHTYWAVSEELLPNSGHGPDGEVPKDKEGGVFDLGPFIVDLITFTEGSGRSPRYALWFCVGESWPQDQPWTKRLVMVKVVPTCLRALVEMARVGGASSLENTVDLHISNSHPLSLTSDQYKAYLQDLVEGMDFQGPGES
Technique: protein-binding microarray
Form: double-stranded DNA, one strand shown
Matrix: in vitro
Tested at: 2540 nM top
Notes: 60-bp whole probe
Together with: salmon DNA 0.4 mg/ml
Relative to: random background probes
Direction: higher = stronger binding
Measurement: fitted relative affinity
All sequences stand within: GCCTAGCAC … GTCTTGATTCGCTTGACGCTGCTG
TTAGGTATCGGCTTTCGGTTAGTGCTA: 1.77 z-score
GACGGACTGGGGTTTCGAGACGTGCTA: 0.0795 z-score
TCAGCCATCAATATCTGACTGTGCTAG: -0.443 z-score
TTAGAACTGGACACTGGGTTAGTGCTA: -0.688 z-score
TTCTCTTTTATTTTTTTTATGTGCTAG: 3.18 z-score
AGTTCTCTAGAAATTCCCACGGTGCTA: 0.511 z-score
TTGCATCGTAAGCAAAAATGGTGCTAG: -0.127 z-score
TTAGATATCGGGGTTCGATTAGTGCTA: -0.12 z-score
CCTCGTCTCTATCAAAAATAGTGCTAG: 0.622 z-score
TCACTTCCATTTTCTGAAACTGTGCTA: 3.51 z-score
TTAGAACTGAGTAACGATTAGTGCTAG: -0.295 z-score
TTCCTTGCTATGTTGCTCAGGTGCTAG: 0.233 z-score
GACGATATCGCGTTTCGAGACGTGCTA: 0.781 z-score
GACGGTATCGGGTATCGAGACGTGCTA: 1.63 z-score
GACGGGTTCGGTTCCGGGACGTGCTAG: 2.68 z-score
TCAGGCCTCTTGCTCAGACTGTGCTAG: -0.696 z-score
TCACTTATCCTATCAGTACTGTGCTAG: 1.79 z-score
TTAGGTTGCGACTTTCGGTTAGTGCTA: 2.2 z-score
TAATATCTAAGATTCTAGCCGTGCTAG: -0.182 z-score
CACATTGTGCAATCTTAATAAGTGCTA: 1.49 z-score
TTAGGACTGGGGACTGGGTAAGTGCTA: -0.858 z-score
GACGGTCTCCTTTTCCAGACGTGCTAG: 5.03 z-score
TTAGATGTCAGTTCCGATTAGTGCTAG: 1.85 z-score
GAAGGTTTCCTTCTCCTGACGTGCTAG: 10.4 z-score
TTGGGACTGGGGACTGGGTTAGTGCTA: -1.34 z-score

Some of these lines once more (series 3):
CGAAGGU: -0.19
GCAGAUU: 0.0533
GAGCCAC: -0.0899
GUGACGA: 0.211
GGUCGAG: 0.0515
UCUGAGU: -0.28
GUUGUCG: -0.434
CAGUUCA: -0.238
